Published values collected from several papers.
Protocols differ between the studies behind these lines. “And” joins repeats or separate records; there may be more than shown. Numbers after ± are the reported error. Converted amounts (≈) assume the structure as drawn.

`CC(C)Oc1ccc(N/N=C/c2ccc(-c3ccc(/C=N/Nc4ccc(OC(C)C)cc4)cc3)cc2)cc1` — result for antifungal activity: “inactive” (Candida and Aspergillus; concentration not given, strain panel).
For `Fc1ccc(Nc2c(-c3ccccn3)nc3ccncn23)cc1`, the IC50 was > 64000 nM and 38000 nM (Leishmania infantum; macrophages, MHOM/MA(BE)/67/ITMAP263, amastigote).
The inhibition of `CN(C)/N=N/c1[nH]cnc1C(N)=O` is reported as -3.09% (THP-1; pyroptotic LDH release; 2 µM, 40 min, added: LPS then nigericin).
The selectivity index of `CCCCN(Cc1c(-c2ccccc2)nc2ccc(C)cn12)c1cccc(C(F)(F)F)c1` is reported as 3.3 (Leishmania infantum; MHOM/MA(BE)/67/ITMAP263; 120 h; reference: CC50 macrophages over EC50 amastigotes).
With `Nc1nc(-c2ccccc2)nc2[nH]nc(Nc3ccc(C(F)(F)F)cc3)c12` the clinical score was 0 (coxsackievirus B3; 31-1-93, NMRI mice, CVB3 chronic myocarditis; oral, 100 mg/kg twice daily, day 26, dosed days 0 to 6, score scale 0 to 7; direction not given).
The cell protection of `CC(C)n1ncc2c(C(=O)NCC3(C)CNC3)cc(C3CC3)nc21` is reported as 102% and 97.1% (coxsackievirus A6; CPE; RD; 1.5 µM).
With `N#Cc1ccc(N2CCN(S(=O)(=O)c3ccc(F)cc3)CC2)cc1NCc1ccncc1` the larval mortality was > 80% (Aedes aegypti; 100 µM, 48 h, 1 instar larvae).
For `O=C1C(Cl)=C(n2cncn2)C(=O)c2ccccc21`, “zone of inhibition” read 14 mm (Bacillus cereus; MTCC 430; 10 µg/mL).
Under “concentration at detection limit”, `[N-]=[N+]=N[C@]1(CO)O[C@@H](n2ccc(N)nc2=O)[C@@H](F)[C@@H]1O` is recorded as 410 nM (Murine coronavirus; viral RNA, RT-qPCR; DBT-9, MHV-A59 ExoN−).
For `Cn1cc(-c2ccc(-c3cncc(Cl)c3N3CCC4(CCNC4=O)CC3)cc2)cn1`, “fold change in expression” read 2.11 (COLO 205; microarray, refers to: ATF3; concentration not given, 6 h, gene set ATF-3; reference: untreated cells).
For `COc1ccc(NS(=O)(=O)c2ccc(N)cc2)cc1OC`, the selectivity index was > 1.5 (Leishmania infantum; intracellular amastigote growth; U-937 macrophages and HeLa; reference: IC50 HeLa over IC50 amastigotes).
`CC(C)[C@H](NC(=O)[C@@H](NC(=O)CCCc1cn(CC(O)CN2CCN(CC(=O)O)CCN(CC(=O)O)CCN(CC(=O)O)CC2)nn1)[C@@H](C)O)C(=O)N[C@@H](CCCNC(=N)N)C(=O)N[C@H](C(=O)N[C@@H](CO)C(=O)N[C@@H](C)C(=O)N[C@@H](CC(=O)O)C(=O)O)[C@@H](C)O` (some centres unmarked) gave an AUC(0-inf) of 2200 ± 162 µg·h/mL (healthy male humans, plasma; intravenous, 0.08 mmol/kg).
`[H]/N=C(/N)N[C@H]1[C@H](O)[C@@H](O)[C@H](O[C@@H]2O[C@@H](C)[C@](O)(C=O)[C@H]2O[C@@H]2O[C@@H](CO)[C@H](O)[C@@H](O)[C@@H]2NC)[C@@H](N/C(N)=N\[H])[C@@H]1O`: “inhibition zone diameter” 15 ± 0.1 mm (Bacillus cereus; ATCC 14579; concentration not given).
The viability of `O=C1c2cccc(O)c2C(=O)c2c(O)cc(CO)cc21` is reported as 146 ± 22.2% (HK-2 co-cultured with HepaRG; MTT; 133.33 µM, 24 h; reference: untreated control).
`CC1CCC(C(C)C)C(OC2=C(Cl)C(=O)c3ccccc3C2=O)C1` (centres unmarked) — result for “zone of inhibition”: 18 mm (Bacillus cereus; MTCC 430; 10 µg/mL).
With `COc1ccc(NS(=O)(=O)c2ccc(N(C)C=O)cc2)cn1` the selectivity index was > 2.3 (Leishmania infantum; intracellular amastigote growth; U-937 macrophages and HeLa; reference: IC50 HeLa over IC50 amastigotes).
`COc1ccc(/C=C2\NC(=S)N(c3ccccc3)C2=O)c(OC)c1` — result for “inhibition zone diameter”: 14 ± 0.15 mm (Bacillus cereus; ATCC 14579; concentration not given).
`CC(C)(C)N/N=C/c1ccc(-c2ccc(/C=N/NC(C)(C)C)cc2)cc1`: antifungal activity “inactive” (Candida and Aspergillus; concentration not given, strain panel).
For `O=C1/C(=C/c2ccc([N+](=O)[O-])cc2[N+](=O)[O-])NC(=S)N1c1ccccc1`, “inhibition zone diameter” read 15 ± 0.14 mm (Bacillus cereus; ATCC 14579; concentration not given).
The median lifespan of `Cc1ccc(NC(=O)N2Cc3[nH]cnc3C[C@H]2c2nc(-c3ccc4c(c3)OCO4)no2)cc1` is reported as 21 days (Caenorhabditis elegans; N2; 50 µM).
With `COC(=O)[C@H](Cc1c[nH]c2ccccc12)NCc1cc2ccccc2nc1OC` the growth was 91% (Pseudomonas aeruginosa; 64 µg/mL, without pentamidine; reference: control).
`O=[N+]([O-])c1ccc(N2CCN(S(=O)(=O)c3ccc(Cl)cc3)CC2)cc1NCc1cccnc1` gave a larval mortality of ~2% (Aedes aegypti; 100 µM, 24 h, first instar larvae).
The MBC of `CN[C@H](CC(C)C)C(=O)N[C@H]1C(=O)N[C@@H](CC(N)=O)C(=O)N[C@H]2C(=O)N[C@H]3C(=O)N[C@H](C(=O)N[C@H](C(=O)O)c4cc(O)cc(O)c4-c4cc3ccc4O)[C@H](O)c3ccc(c(Cl)c3)Oc3cc2cc(c3O[C@@H]2O[C@H](CO)[C@@H](O)[C@H](O)[C@H]2O[C@H]2C[C@](C)(N)[C@H](O)[C@H](C)O2)Oc2ccc(cc2Cl)[C@H]1O` is reported as > 32 µg/mL (Streptococcus pyogenes; ATCC 13813; 1 strain).
For `Cc1cc(OC(C)C)ccc1C(=O)C(C)(C)NC(=O)c1sccc1C`, the EC50 was 0.65 µg/mL (Mycosphaerella melonis; mycelial growth; PSA medium; 20 °C, suspension concentrate 400 g/L).
The selectivity index of `Cc1ccc2nc(-c3ccccc3)c(CNc3ccc(F)cc3)n2c1` is reported as 1 (Leishmania infantum; MHOM/MA(BE)/67/ITMAP263; 120 h; reference: CC50 macrophages over EC50 amastigotes).
`COc1cc2c(c(OC)c1OC)C(=O)c1c(cc(C)c(O)c1OC)C2=O` gave a viability of 59.5 ± 2.46% (HK-2 co-cultured with HepaRG; MTT; 133.33 µM, 24 h; reference: untreated control).
With `Oc1cc(O)c2c(c1)O[C@H](c1cc(O)c(O)c(O)c1)[C@@H](O)C2` the MBC/MIC ratio was 4 (Streptococcus gordonii; broth microdilution).
With `CO[C@H]1[C@H](O[C@H]([C@H]2O[C@@H](n3ccc(=O)[nH]c3=O)[C@H](O)[C@@H]2O)[C@H](NCCCNC(=O)[C@@H](NC(=O)[C@@H](NC(=O)N[C@H](C(=O)O)C(C)C)[C@@H]2CCN=C(N)N2)[C@@H](OC(=O)CCCCCCCCCCCCN(O)C(=N)N)C(C)C)C(=O)O)O[C@H](CN)[C@H]1O` the MIC90 was > 35 µg/mL (Bacillus cereus; microplate alamar blue; NRRL B-568).
With `COc1ccnc(-c2nc3ccccn3c2N(C)c2ccc(F)cc2)c1` the IC50 was 630 nM and 450 nM (Leishmania infantum; macrophages, MHOM/MA(BE)/67/ITMAP263, amastigote).
`O=C(O)c1ccc(O)c(O)c1` has an IC50 of > 100000 nM (human immunodeficiency virus 1; viral replication; TZM-bl cells, BaL (CCR5-tropic); 48 h).
The LC50 of `O=C(/C=C/c1ccccc1O)/C=C/c1ccccc1C(F)(F)F` is reported as 17300 nM (Aedes aegypti; larval mortality; fourth instar larvae; 72 h).
The inhibition of `O=C(O)Cc1ccc(Cl)cc1` is reported as 10.4% (THP-1; pyroptotic LDH release; 2 µM, 40 min, added: LPS then nigericin).
The IC50 of `O=C(/C=C/c1ccc(O)c(O)c1)O[C@@H]1C[C@](O)(C(=O)O)C[C@@H](O)[C@H]1O` is reported as > 100000 nM (human immunodeficiency virus 1; viral replication; TZM-bl cells, NL4-3 (CXCR4-tropic); 48 h).
`COC(=O)c1cccc(Cn2ccc3ccc(-c4ccc5ccn(Cc6cccc(C(=O)O)c6)c5c4)cc32)c1` gave an IC50 of 13400 nM (human immunodeficiency virus 1; viral attachment, MAGI cell; MAGI cells, Ba-L; 3 h postinfection washout, CCR5-tropic).
`Brc1ccc(N/N=C/c2ccc(-c3ccc(/C=N/Nc4ccc(Br)cc4)cc3)cc2)cc1` — result for antifungal activity: “inactive” (Candida and Aspergillus; concentration not given, strain panel).
Under “parasite vacuole ratio”, `CC(=O)Oc1ccccc1C(=O)Nc1ncc([N+](=O)[O-])s1` is recorded as 1.01 and 2.61 and 1.11 (Cryptosporidium parvum; egress and reinvasion; HCT-8; 2 x EC90, 19.5 h, compound added 6 h postinfection; reference: vacuoles at 6 h).
With `COc1ccc(S(=O)(=O)Nc2cc(OC)c(NC(=O)CCCl)cc2OC)cc1` the selectivity index was 0.27 (Leishmania infantum; intracellular amastigote growth; U-937 macrophages and HeLa; reference: IC50 HeLa over IC50 amastigotes).
With `COCC(=O)N1CCCC(C(=O)NCc2nc(-c3ccccc3)cs2)C1` (racemic) the EC50 was 110 nM (Plasmodium falciparum; Dd2; concentration not given).
For `N=C(N)c1ccc(OCCC(CCOc2ccc(C(=N)N)cc2)c2ccccc2)cc1` (centres unmarked), “MIC in combination” read 12.5 µg/mL (Escherichia coli; BW25113; concentration not given, lowest-FICI combination, added: rifampicin).
`CC(=Nc1ccc(N=Cc2cnccn2)cc1)N(C)C`: “time to worm clearance” ≤ 24 h (Necator americanus; infected hamster; oral, 50 mg/kg, single dose).
For `COc1cccnc1-c1nc2ccccn2c1N(C)c1ccc(F)cc1`, the IC50 was 1600 nM and 1260 nM (Leishmania infantum; macrophages, MHOM/MA(BE)/67/ITMAP263, amastigote).
`C#CCON=C1C=CC(=C(C#N)c2ccccc2)C=C1` has an MFC of 32 µg/mL (≈ 123 µM) (Candida parapsilosis; broth dilution; ATCC 22099; 48 h, 37 °C).
`Cc1ccc(C(C)C)c(OC2=C(Cl)C(=O)c3ccccc3C2=O)c1`: “zone of inhibition” 21 mm (Bacillus cereus; MTCC 430; 10 µg/mL).
`CC(=O)NC[C@H]1CN(c2ccc(N3CCOCC3)c(F)c2)C(=O)O1` has an MIC50 of 1 µg/mL (≈ 2.96 µM) (Streptococcus pneumoniae; penicillin-resistant, 10 isolates; serum 0%).
With `CN(c1ccc(F)cc1)c1c(-c2cc(Cl)ccn2)nc2ccccn12` the IC50 was 1740 nM and 8060 nM (Leishmania infantum; macrophages, MHOM/MA(BE)/67/ITMAP263, amastigote).
With `Cc1ccc(-c2nc3ccccc3s2)cc1NC(=O)c1cnccc1C(F)(F)F` the EC50 was > 10000 nM (Leishmania mexicana; amastigote growth; J774.A1 macrophages).
`Cc1cccc(-c2c(-c3ccccn3)nc3n2CCC3)c1` has an IC50 of 670 nM and 540 nM (Leishmania infantum; macrophages, MHOM/MA(BE)/67/ITMAP263, amastigote).
`O=c1c(O[C@@H]2O[C@H](CO)[C@H](O)[C@H](O)[C@H]2O)c(-c2ccc(O)c(O)c2)oc2cc(O)cc(O)c12` has an IC50 of > 100000 nM (human immunodeficiency virus 1; viral replication; TZM-bl cells, NL4-3 (CXCR4-tropic); 48 h).
`Cc1ccccc1-c1c(-c2ccccn2)nc2n1CCC2` gave an IC50 of 520 nM and 1700 nM (Leishmania infantum; macrophages, MHOM/MA(BE)/67/ITMAP263, amastigote).
`O=C1O[C@H]2[C@@H]3OC(=O)c4cc(O)c(O)c(O)c4-c4c(O)c(O)c5oc(=O)c6c(c(O)c(O)c7oc(=O)c4c5c76)-c4c(cc(O)c(O)c4O)C(=O)OC[C@H]3OC(O)[C@@H]2OC(=O)c2cc(O)c(O)c(O)c2-c2c1cc(O)c(O)c2O` (mixture of isomers) gave an MBC/MIC ratio of 4 (Streptococcus gordonii; broth microdilution).

Excerpt of the above:
The median lifespan of `Cc1ccc(NC(=O)N2Cc3[nH]cnc3C[C@H]2c2nc(-c3ccc4c(c3)OCO4)no2)cc1` is reported as 21 days (Caenorhabditis elegans; N2; 50 µM).
With `CO[C@H]1[C@H](O[C@H]([C@H]2O[C@@H](n3ccc(=O)[nH]c3=O)[C@H](O)[C@@H]2O)[C@H](NCCCNC(=O)[C@@H](NC(=O)[C@@H](NC(=O)N[C@H](C(=O)O)C(C)C)[C@@H]2CCN=C(N)N2)[C@@H](OC(=O)CCCCCCCCCCCCN(O)C(=N)N)C(C)C)C(=O)O)O[C@H](CN)[C@H]1O` the MIC90 was > 35 µg/mL (Bacillus cereus; microplate alamar blue; NRRL B-568).
The selectivity index of `CCCCN(Cc1c(-c2ccccc2)nc2ccc(C)cn12)c1cccc(C(F)(F)F)c1` is reported as 3.3 (Leishmania infantum; MHOM/MA(BE)/67/ITMAP263; 120 h; reference: CC50 macrophages over EC50 amastigotes).
With `COCC(=O)N1CCCC(C(=O)NCc2nc(-c3ccccc3)cs2)C1` (racemic) the EC50 was 110 nM (Plasmodium falciparum; Dd2; concentration not given).
